Published values collected from several papers.
“And” joins repeats or separate records; there may be more than shown. ± marks the error that the study gave.

CC(C)C[C@H](NC(=O)[C@H](Cc1ccc(O)cc1)NC(=O)[C@H](C)NC(=O)[C@H](CC(N)=O)NC(=O)[C@H](CC(C)C)NC(=O)[C@H](C)NC(=O)[C@@H](NC(=O)[C@H](CCCCN)NC(=O)CNC(=O)[C@@H](NC(=O)[C@H](CC(N)=O)NC(=O)[C@H](CCCCN)NC(=O)CNC(=O)[C@@H](NC(=O)[C@H](Cc1c[nH]cn1)NC(=O)[C@H](C)NC(=O)[C@H](C)NC(=O)[C@H](CCCCN)NC(=O)[C@H](CCCCN)NC(=O)[C@H](Cc1ccccc1)NC(=O)[C@H](Cc1c[nH]c2ccccc12)NC(=O)[C@H](CCCCN)NC(=O)[C@H](CCCCN)NC(=O)[C@H](CS)NC(=O)CN)C(C)C)C(C)C)C(C)C)C(N)=O  chronic toxic concentration (zebrafish embryos 28 hpf, E3 medium; 24 h): 5 µM
CN(C)CCc1c[nH]c2cccc(/N=N/c3ccccc3)c12  cis isomer at photostationary state (light irradiation; solution; together with: light 385 nm): 50%
CSCC[C@H](NC(=O)CNC(=O)[C@H](CCCCN)NC(=O)[C@H](CC(C)C)NC(=O)[C@@H]1CCCN1C(=O)[C@H](CO)NC(=O)[C@H](Cc1c[nH]cn1)NC(=O)[C@H](Cc1c[nH]c2ccccc12)NC(=O)[C@H](CCCNC(=N)N)NC(=O)[C@H](CC(C)C)NC(=O)[C@H](CCCNC(=N)N)NC(=O)[C@H](Cc1c[nH]c2ccccc12)NC(=O)[C@H](CS)NC(=O)CCCCCNC(=O)CN1CCN(CC(=O)O)CCN(CC(=O)O)CCN(CC(=O)O)CC1)C(=O)O [copper-64 labelled]  tumour-to-blood ratio (C57BL/6J mice, B16-F10 tumour; intravenous, 1.85 MBq, 2 h; relative to: tumour over blood): 2.98
COc1cc2c(cc1O)C(CCc1ccc(Cl)cc1)N([11CH3])CC2 (stereo not drawn)  half-maximal concentration, time to (PET; Sprague-Dawley rat, male, brain NR2B-rich regions; intravenous, 20.5 MBq, no carrier added): 30 min
CC[C@H](C)[C@H](NC(=O)[C@H](CCCCN)NC(=O)CNC(=O)[C@H](CC(C)C)NC(=O)[C@H](Cc1ccccc1)NC(=O)[C@H](CCCCN)NC(=O)[C@H](CO)NC(=O)[C@H](Cc1ccccc1)NC(=O)[C@H](Cc1c[nH]c2ccccc12)NC(=O)[C@H](CCC(N)=O)NC(=O)[C@@H](NC(=O)[C@H](Cc1ccccc1)NC(=O)CCCCCNC(=O)CN1CCN(CC(=O)O)CCN(CC(=O)O)CCN(CC(=O)O)CC1)C(C)C)C(=O)N[C@@H](CCC(=O)O)C(=O)N1CCC[C@H]1C(=O)N[C@@H](CC(=O)O)C(=O)N[C@H](C(=O)N[C@@H](CO)C(=O)N[C@@H](CCC(N)=O)C(=O)N[C@H](C(=O)N[C@@H](CCC(N)=O)C(=O)N[C@@H](CC(=O)O)C(=O)N1CCC[C@H]1C(=O)N[C@@H](CC(N)=O)C(=O)N[C@@H](CC(=O)O)C(=O)N[C@@H](CCC(N)=O)C(=O)N[C@@H](Cc1ccc(O)cc1)C(=O)N[C@@H](CCC(=O)O)C(=O)N1CCC[C@H]1C(=O)N[C@@H](Cc1ccccc1)C(=O)O)C(C)C)C(C)C [copper-64 labelled]  tissue uptake (C57BL/6 mice, spleen; vehicle, intratracheal instillation): 0.77 ± 0.3 %ID/g
COc1ccc(CNc2ccc3c(c2)S(=O)(=O)C=C3)cc1  red cell distribution width SD (male C57BL/6 mice, blood; intraperitoneal, 20 mg/kg, day 8, group average): 31.8 fL
CSCC[C@H](N)C(=O)N[C@@H](C)C(=O)N[C@@H](CCCNC(=N)N)C(=O)N[C@@H](CCCNC(=N)N)C(=O)N[C@@H](CC(=O)O)C(=O)N[C@@H](CCCCN)C(=O)N[C@H](C(=O)N[C@@H](CC(=O)O)C(=O)N[C@@H](Cc1ccccc1)C(=O)N[C@@H](C)C(=O)N[C@@H](CCCNC(=N)N)C(=O)N[C@@H](CCCNC(=N)N)C(=O)N[C@@H](CCCNC(=N)N)C(=O)N[C@@H](CCCNC(=N)N)C(=O)NCCCCCC(=O)NCCCCC(NC(=O)CCCCCNC(=O)[C@H](CCCNC(=N)N)NC(=O)[C@H](CCCNC(=N)N)NC(=O)[C@H](CCCNC(=N)N)NC(=O)[C@H](CCCNC(=N)N)NC(=O)[C@H](C)NC(=O)[C@H](Cc1ccccc1)NC(=O)[C@H](CC(=O)O)NC(=O)[C@@H](NC(=O)[C@H](CCCCN)NC(=O)[C@H](CC(=O)O)NC(=O)[C@H](CCCNC(=N)N)NC(=O)[C@H](CCCNC(=N)N)NC(=O)[C@H](C)NC(=O)[C@@H](N)CCSC)[C@@H](C)O)C(=O)NCCCCC(NC(=O)C(CCCCNC(=O)CCCCCNC(=O)[C@H](CCCNC(=N)N)NC(=O)[C@H](CCCNC(=N)N)NC(=O)[C@H](CCCNC(=N)N)NC(=O)[C@H](CCCNC(=N)N)NC(=O)[C@H](C)NC(=O)[C@H](Cc1ccccc1)NC(=O)[C@H](CC(=O)O)NC(=O)[C@@H](NC(=O)[C@H](CCCCN)NC(=O)[C@H](CC(=O)O)NC(=O)[C@H](CCCNC(=N)N)NC(=O)[C@H](CCCNC(=N)N)NC(=O)[C@H](C)NC(=O)[C@@H](N)CCSC)[C@@H](C)O)NC(=O)CCCCCNC(=O)[C@H](CCCNC(=N)N)NC(=O)[C@H](CCCNC(=N)N)NC(=O)[C@H](CCCNC(=N)N)NC(=O)[C@H](CCCNC(=N)N)NC(=O)[C@H](C)NC(=O)[C@H](Cc1ccccc1)NC(=O)[C@H](CC(=O)O)NC(=O)[C@@H](NC(=O)[C@H](CCCCN)NC(=O)[C@H](CC(=O)O)NC(=O)[C@H](CCCNC(=N)N)NC(=O)[C@H](CCCNC(=N)N)NC(=O)[C@H](C)NC(=O)[C@@H](N)CCSC)[C@@H](C)O)C(N)=O)[C@@H](C)O (stereo partly drawn)  tissue distribution (C57BL/6 mouse female, thymus; dose not given, 6 h; relative to: total): 0.85% and 0.89% and 1.24%
CC(=O)c1c(C)c2cnc(Nc3ccc(N4CCNCC4)cn3)nc2n(C2CCCC2)c1=O  creatinine (C57BL/6 mice, blood; 25 mg/kg, P25, dosed P10 to P24): 0.39 ± 0.05 mg/dL
CCCCCCCCCCCCCC(=O)N[C@H](CCN)C(=O)N[C@@H]1C(=O)N[C@@H](CCN)C(=O)N[C@@H](CC(C)C)C(=O)N[C@@H](CCN)C(=O)N[C@H](Cc2ccccc2)C(=O)N[C@@H](CC(C)C)C(=O)N[C@@H](CCN)C(=O)N[C@H](CCN)C(=O)N[C@@H](C(C)C)C(=O)N[C@@H](CC(=O)O)C(=O)O[C@@H]1C  AUC(0-t) (rat, plasma; intravenous, 5 mg/kg): 56300 ng·h/mL
CCCCCCCCCCCC(=O)C(C)C(=O)N1CCC[C@H]1C(=O)NC(C)(C)C(=O)NC(C)(C)C(=O)NC(C)(C)C(=O)N[C@](C)(CC)C(=O)NCCC(=O)N[C@@H](C)C(=O)N[C@](C)(CC)C(=O)N[C@@H](C)C(=O)N[C@@H](CC(C)C)C(=O)N[C@](C)(CC)C(=O)NCCC(=O)N[C@@H](C)C(=O)N[C@](C)(CC)C(=O)NCCC(=O)N[C@@H](C)C(=O)NC(C)(C)C(=O)NC(C)(C)C(=O)NC(C)(C)C(=O)N[C@@H](C)C(=O)N[C@@H](CC(=O)O)C(=O)O (stereo partly drawn)  remaining intact peptide (LC-MS; buffer with human neutrophil elastase; 40 µM, 10 min, pH 7.5, 37 °C; relative to: 0 h): 75.3% and 89.5% and 80.9%
CC[C@H](C)[C@H](NC(=O)CNC(=O)[C@H](CCSC)NC(=O)[C@H](CCC(N)=O)NC(=O)[C@H](C)NC(=O)[C@H](CCC(N)=O)NC(=O)[C@@H](NC(=O)[C@H](CC(C)C)NC(=O)[C@H](C)NC(=O)[C@H](CO)NC(=O)[C@H](CCSC)NC(=O)[C@H](CCC(=O)O)NC(=O)[C@H](CC(C)C)NC(=O)[C@H](Cc1ccc(O)cc1)NC(=O)[C@H](CO)NC(=O)[C@H](CCC(=O)O)NC(=O)[C@H](CCC(N)=O)NC(=O)[C@H](CCCNC(=N)N)NC(=O)[C@H](CCCCN)NC(=O)[C@H](CC(=O)O)NC(=O)[C@H](CC(C)C)NC(=O)[C@H](CC(N)=O)NC(=O)[C@H](Cc1ccccc1)NC(=O)[C@H](CCC(=O)O)NC(=O)[C@H](CCCCN)NC(=O)[C@@H](NC(=O)[C@H](CC(C)C)NC(=O)[C@H](CCC(=O)O)NC(=O)[C@H](CCC(=O)O)NC(=O)[C@@H](NC(=O)[C@@H](NC(=O)[C@H](CCCNC(=N)N)NC(=O)[C@H](CCCCN)NC(=O)[C@H](C)NC(=O)[C@H](Cc1ccccc1)NC(=O)[C@H](CCC(=O)O)NC(=O)[C@H](CCC(=O)O)NC(=O)[C@H](CC(C)C)NC(=O)[C@@H](N)CO)C(C)C)C(C)C)C(C)C)[C@@H](C)CC)C(=O)N[C@@H](CO)C(=O)N[C@@H](CCC(=O)O)C(=O)N[C@@H](CCCNC(=N)N)C(=O)N[C@H](C(=O)N[C@H](C(=O)N[C@@H](CCC(=O)O)C(=O)N[C@H](C(=O)N[C@H](C(=O)N[C@@H](CC(C)C)C(=O)N[C@@H](CCCNC(=N)N)C(=O)N[C@@H](Cc1c[nH]cn1)C(=O)N[C@@H](C)C(=O)N[C@@H](C)C(=O)N[C@@H](CCC(N)=O)C(=O)N[C@H](C(=O)N[C@@H](CC(C)C)C(=O)N[C@@H](CCCCN)C(=O)O)[C@@H](C)O)C(C)C)[C@@H](C)CC)[C@@H](C)CC)[C@@H](C)CC  AUC(0-inf) (male mouse, plasma; intravenous, 1 mg/kg): 25600 ng·h/mL
CC(C)C[C@@H](NC(=O)[C@@H](CCCNC(=N)N)NC(=O)[C@@H](Cc1c[nH]cn1)NC(=O)[C@@H](Cc1c[nH]c2ccccc12)NC(=O)[C@@H](Cc1c[nH]cn1)NC(=O)[C@@H](Cc1ccccc1)NC(=O)[C@H](NC(=O)[C@@H](Cc1ccc(O)cc1)NC(=O)CNC(=O)CNC(=O)CCOCCOCCOCCNC(=O)CN1CCN(CC(=O)O)CCN(CC(=O)O)CC1)[C@H](C)O)C(=O)N[C@H](CC(N)=O)C(=O)N1CCC[C@@H]1C(=O)O [gallium-68 labelled]  tumour-to-tissue ratio (male C57BL/6 mice; intravenous, 1.85 MBq, 60 min, together with: GP12 blocking; relative to: tumour over liver): 0.61 ± 0.13
CN1Cc2cc(Cl)ccc2-n2c(nnc2C2CCN(c3cccc([18F])n3)CC2)C1  tissue uptake (C57BL/6 mouse male, heart; intravenous, 3.7 MBq, 15 min): 4.77 ± 0.79 %ID/g
COc1ccc(C([O-])=CC(=O)c2ccc(C(C)(C)C)cc2)cc1.[Ru+2].c1ccc(-c2cccc(-c3ccccn3)n2)nc1.c1cnccn1  viability (zebrafish larvae; 10 µM, 48 h, dark; relative to: normal): 0%
O=C1NC2(CC2)COc2ncc(F)cc2[C@H]2COCCN2c2ccn3ncc1c3n2  organ-to-brain weight ratio (Sprague-Dawley rat, female, adrenals; oral, 5 mg/kg/day, 4 weeks, end of treatment): 3.9 ± 0.42%
CC(C)=CCC/C(C)=C\CCn1cc(CC(C)(P(=O)(O)O)P(=O)(O)O)nn1  bile concentration (CD-1 mice, pooled bile; intravenous, 0.3 mg/kg, 24 h): 172 ng/mL
N#[11C]c1ccc(-c2csc(NN=C3CCCC3)n2)cc1  radioactivity uptake (C57BL/6 mice, male, spleen; intravenous, 3 MBq, 30 min): 1.52 ± 0.25 %ID/g
CC(C)C[C@H](NC(=O)[C@H](CCCCN)NC(=O)[C@H](CCC(N)=O)NC(=O)[C@@H](N)Cc1c[nH]cn1)C(=O)N[C@H](C(=O)N[C@@H](CSSC[C@H](NC(=O)[C@@H](NC(=O)[C@H](CC(C)C)NC(=O)[C@H](CCCCN)NC(=O)[C@H](CCC(N)=O)NC(=O)[C@@H](N)Cc1c[nH]cn1)C(C)C)C(=O)N[C@@H](Cc1ccccc1)C(=O)N[C@@H](C)C(=O)N[C@@H](CCC(=O)O)C(=O)N[C@@H](CC(=O)O)C(=O)N[C@H](C(=O)O)C(C)C)C(=O)N[C@@H](Cc1ccccc1)C(=O)N[C@@H](C)C(=O)N[C@@H](CCC(=O)O)C(=O)N[C@@H](CC(=O)O)C(=O)N[C@H](C(=O)O)C(C)C)C(C)C  turbidity onset concentration (OD600; 20 mM Tris-HCl; pH 7.4): 1 mM
